Measured values from different studies.
Lines come from different studies, so protocols differ.
Technique: steady-state kinetics
B1: pyc H216N (Rhizobium etli, UniProt Q2K340); chain MPISKILVANRSEIAIRVFRAANELGIKTVAIWAEEDKLALHRFKADESYQVGRGPHLARDLGPIESYLSIDEVIRVAKLSGADAIHPGYGLLSESPEFVDACNKAGIIFIGPKADTMRQLGNKVAARNLAISVGVPVVPATEPLPDDMAEVAKMAAAIGYPVMLKASWGGGGRGMRVIRSEADLAKEVTEAKREAMAAFGKDEVYLEKLVERARNVESQILGDTHGNVVHLFERDCSVQRRNQKVVERAPAPYLSEAQRQELAAYSLKIAGATNYIGAGTVEYLMDADTGKFYFIEVNPRIQVEHTVTEVVTGIDIVKAQIHILDGAAIGTPQSGVPNQEDIRLNGHALQCRVTTEDPEHNFIPDYGRITAYRSASGFGIRLDGGTSYSGAIITRYYDPLLVKVTAWAPNPLEAISRMDRALREFRIRGVATNLTFLEAIIGHPKFRDNSYTTRFIDTTPELFQQVKRQDRATKLLTYLADVTVNGHPEAKDRPKPLENAARPVVPYANGNGVKDGTKQLLDTLGPKKFGEWMRNEKRVLLTDTTMRDGHQSLLATRMRTYDIARIAGTYSHALPNLLSLECWGGATFDVSMRFLTEDPWERLALIREGAPNLLLQMLLRGANGVGYTNYPDNVVKYFVRQAAKGGIDLFRVFDCLNWVENMRVSMDAIAEENKLCEAAICYTGDILNSARPKYDLKYYTNLAVELEKAGAHIIAVKDMAGLLKPAAAKVLFKALREATGLPIHFHTHDTSGIAAATVLAAVEAGVDAVDAAMDALSGNTSQPCLGSIVEALSGSERDPGLDPAWIRRISFYWEAVRNQYAAFESDLKGPASEVYLHEMPGGQFTNLKEQARSLGLETRWHQVAQAYADANQMFGDIVKVTPSSKVVGDMALMMVSQDLTVADVVSPDREVSFPESVVSMLKGDLGQPPSGWPEALQKKALKGEKPYTVRPGSLLKEADLDAERKVIEKKLEREVSDFEFASYLMYPKVFTDFALASDTYGPVSVLPTPAYFYGLADGEELFADIEKGKTLVIVNQAVSATDSQGMVTVFFELNGQPRRIKVPDRAHGATGAAVRRKAEPGNAAHVGAPMPGVISRVFVSSGQAVNAGDVLVSIEAMKMETAIHAEKDGTIAEVLVKAGDQIDAKDLLAVYGG
B2: LdmS (Staphylococcus aureus, UniProt Q2FWC5); chain MTNNGNEPNLTLSDLYDKDVVYTSRPSYISNPWLKPDEHQSNFLTGRELLIANQLPVIVHEASATDKLHQLFQVIGKEVPNSIYTFNNQQSYENLIKQLAHKENKKIYFQYIHDETILNQQYYALDKTLFVALNNKARIPEWTNGKFLPKRKVVKIEQFENEIKNWEFPLVIKPGDDLPTAGGYGVMICYHDADLQKAITRIKEATAETNSLIIEQKIEEKANYCVQFAYSESLGIQYLGAATQLTDKYGFYNGNENTTNVPEHVIEAGRQIMENGVNQGFFGVAGFDLLVDEDDNVYAIDLNFRQNGSTSMLLLANELNSGYQKFYSYHSKGDNTHFFNTILKYVKEGSLYPLSYYDGDWYGEDKVKSRFGCIWHGDSKETVLENERAFLAELEHY
B3: LYS12 D271N (Saccharomyces cerevisiae, UniProt P40495); chain SLTIGLIPGDGIGKEVIPAGKQVLENLNSKHGLSFNFIDLYAGFQTFQETGKALPDETVKVLKEQCQGALFGAVQSPTTKVEGYSSPIVALRREMGLFANVRPVKSVEGEKGKPIDMVIVRENTEDLYIKIEKTYIDKATGTRVADATKRISEIATRRIATIALDIALKRLQTRGQATLTVTHKSNVLSQSDGLFREICKEVYESNKDKYGQIKYNEQIVDSMVYRLFREPQCFDVIVAPNLYGDILSNGAAALVGSLGVVPSANVGPEIVIGEPCHGSAPDIAGKGIANPIATIRSTALMLEFLGHNEAAQDIYKAVDANLREGSIKTPDLGGKASTQQVVDDVLSRL
B4: protein Y93W (Thermus thermophilus, UniProt Q5SKR5); chain MSAPKPFVIGIAGGTASGKTTLAQALARTLGERVALLPMDHYYKDLGHLPLEERLRVNYDHPDAFDLALYLEHAQALLRGLPVEMPVYDFRAWTRSPRRTPVRPAPVVILEGILVLYPKELRDLMDLKVFVDADADERFIRRLKRDVLERGRSLEGVVAQYLEQVKPMHLHFVEPTKRYADVIVPRGGQNPVALEMLAAKALARLARMGAA
B5: protein (Irpex lacteus, UniProt A0A510I1H7); chain QSQVWGQCGGIGWTGATTCVAGSVCTKSNDYYSQCIPGAAAPSSAPPASTPVSVPPSQPSGSSGGLANIPASKLTQFSNFGTNPNNVQMFVYKPKNVAANPPLIVASHYCSGTAQAYFTGSKFAQLAETYGYVVIFPSSPHSGTCWDVSSDETLMHDGGSDSLSIANAARFAISNWGVDPNRVFAVGTSSGAMMTSVLAGAYPDIFKAGIVDSGVAFGCFAVPGQPEDSWNSQCSEGQLVLTGQQWAQKVKNAFPGFTGTYPKMQVWHGTADTTLYPQNFFEEVKQWTTIFNYPSTPLSNVTQTNLGSNYHNATFGPNFQAILATGVGHTVPLFEQQYLQFLGIA
B6: enzyme (Thermobifida fusca, UniProt Q47RK4); chain MTDVYILDAVRTPFGRYGGALSGIRPDDLAAHVLRALAERSPGLDPAAVDDVFFGDANGAGEDNRNVARMAALLAGWPTSVPGVTLNRLCGSGMESVIAANRAIAVGDASLAVAGGVESMSRAPWVLPKPAQGFPTGHETLYSTTLGWRMVNPAMPEQWTVSLGESTEQVAATYGISRAEQDAFALRSHERAARAWAEGVFDAEITQIPGAELERDESIRETSAEKLAALKPAFRPDGTITAGNASPLNDGAAALLIGDAAAAERVGREPLARIVSRGVAAVDPDVFGIGPVQAAEIALRRAGIGWDDLSVVELNEAFAAQSLACLKLWPDLDPEIVNPNGGAIAIGHPLGASGARIVGTLAHELHRRGGGWGLAAICIGVGQGLAVVLHR
B7: AKR1C1 (Homo sapiens, UniProt Q04828); chain MDSKYQCVKLNDGHFMPVLGFGTYAPAEVPKSKALEATKLAIEAGFRHIDSAHLYNNEEQVGLAIRSKIADGSVKREDIFYTSKLWCNSHRPELVRPALERSLKNLQLDYVDLYLIHFPVSVKPGEEVIPKDENGKILFDTVDLCATWEAVEKCKDAGLAKSIGVSNFNRRQLEMILNKPGLKYKPVCNQVECHPYFNQRKLLDFCKSKDIVLVAYSALGSHREEPWVDPNSPVLLEDPVLCALAKKHKRTPALIALRYQLQRGVVVLAKSYNEQRIRQNVQVFEFQLTSEEMKAIDGLNRNVRYLTLDIFAGPPNYPFSDEY
B8: FabZ (Campylobacter jejuni, UniProt A1VXZ7); chain MIDVMQIQEILPHRYPFLLVDKITELKVKEVVLGYKNISISDHVFMGHFPGHPIYPGVLILEGMAQTGGVLAFESMEDKVDPKSKVVYFTGIDGAKFRNPVRPGDRLDYEMSVVKNRGNMWIFKGQAFVDGNLVAEAELKAMIVDK
UniProt Q04049, sequence (whole entry, looked up): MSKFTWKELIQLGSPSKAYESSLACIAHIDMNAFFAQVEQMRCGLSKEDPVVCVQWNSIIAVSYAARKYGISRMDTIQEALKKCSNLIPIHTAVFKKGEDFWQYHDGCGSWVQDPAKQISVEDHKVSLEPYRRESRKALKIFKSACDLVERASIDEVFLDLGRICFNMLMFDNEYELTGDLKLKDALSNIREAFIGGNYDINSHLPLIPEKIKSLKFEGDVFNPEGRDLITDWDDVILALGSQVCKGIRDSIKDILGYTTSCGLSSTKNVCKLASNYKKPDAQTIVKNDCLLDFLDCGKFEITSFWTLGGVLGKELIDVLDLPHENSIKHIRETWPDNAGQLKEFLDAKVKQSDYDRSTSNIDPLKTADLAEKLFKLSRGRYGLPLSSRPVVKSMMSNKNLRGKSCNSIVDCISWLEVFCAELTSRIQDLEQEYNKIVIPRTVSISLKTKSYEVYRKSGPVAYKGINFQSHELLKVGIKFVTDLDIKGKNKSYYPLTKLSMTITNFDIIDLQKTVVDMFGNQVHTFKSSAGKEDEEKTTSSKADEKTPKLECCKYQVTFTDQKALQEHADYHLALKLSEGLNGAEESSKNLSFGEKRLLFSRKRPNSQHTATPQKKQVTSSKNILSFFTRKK
UniProt Q29437, sequence (whole entry, looked up): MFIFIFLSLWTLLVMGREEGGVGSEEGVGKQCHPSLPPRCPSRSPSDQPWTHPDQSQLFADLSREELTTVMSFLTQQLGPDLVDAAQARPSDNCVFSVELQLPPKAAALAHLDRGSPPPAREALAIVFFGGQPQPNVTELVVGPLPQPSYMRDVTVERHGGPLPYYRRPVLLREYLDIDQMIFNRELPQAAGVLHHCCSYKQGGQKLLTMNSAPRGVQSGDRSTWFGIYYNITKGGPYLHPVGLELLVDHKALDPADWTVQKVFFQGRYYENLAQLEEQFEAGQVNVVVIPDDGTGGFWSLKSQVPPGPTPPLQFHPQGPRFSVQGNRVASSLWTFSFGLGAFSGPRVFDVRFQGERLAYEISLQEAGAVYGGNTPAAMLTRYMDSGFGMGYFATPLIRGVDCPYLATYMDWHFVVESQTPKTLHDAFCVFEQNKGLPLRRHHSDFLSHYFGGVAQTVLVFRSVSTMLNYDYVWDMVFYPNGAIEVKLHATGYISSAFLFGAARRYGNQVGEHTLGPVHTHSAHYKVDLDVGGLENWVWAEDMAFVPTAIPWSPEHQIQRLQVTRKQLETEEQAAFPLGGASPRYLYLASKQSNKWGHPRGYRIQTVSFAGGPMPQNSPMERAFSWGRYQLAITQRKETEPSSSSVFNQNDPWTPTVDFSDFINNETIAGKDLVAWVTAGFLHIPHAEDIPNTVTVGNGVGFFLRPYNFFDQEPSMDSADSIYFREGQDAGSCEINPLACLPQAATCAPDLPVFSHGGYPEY

B1 (pyc H216N) — Km (Nc1ncnc2c1ncn2[C@@H]1O[C@H](COP(=O)(O)OP(=O)(O)OP(=O)(O)O)[C@@H](O)[C@H]1O; pH 7.8, 30 °C, no pyruvate, added: NaHCO3 20 mM, acetyl CoA 0.25 mM, Mg2+ 5 mM): 82 µM
Plasma amine oxidase (Bos taurus, UniProt Q29437) — Km (C[N+](C)(C)CCOc1ccc2cc(CN)ccc2c1; pH 7.2, 30 °C): 0.183 µM
B2 (LdmS) — Km (CSCC[C@H](N)C(=O)O; pH 8, 37 °C, added: ATP 2.5 mM, L-Asp 50 mM, MgCl2 5 mM): 580 µM
B3 (LYS12 D271N) — Km (O=C(O)CC[C@H](C(=O)O)[C@@H](O)C(=O)O; pH 7.5, 25 °C, potassium acetate 100 mM, substrate as Mg complex, added: NAD+ varied; Mg2+ 10 mM): 3.7 µM
B4 (protein Y93W) — Km (Nc1ccn([C@@H]2O[C@H](CO)[C@@H](O)[C@H]2O)c(=O)n1; pH 7.2, 25 °C, KCl 100 mM, added: ATP 100–200 µM): 71 µM
B5 (protein) — Km (CC(=O)Oc1ccc2c(C)cc(=O)oc2c1; pH 6, 30 °C): 400 µM
RAD30 (Saccharomyces cerevisiae, UniProt Q04049) — Km (Cc1cn([C@H]2C[C@H](O)[C@@H](COP(=O)(O)OP(=O)(O)OP(=O)(O)O)O2)c(=O)[nH]c1=O; pH 7.5, room temperature, apparent Km, apparent, added: dG 10 nM primer-template): 18 µM
B6 (enzyme) — Km (CC(=O)SCCNC(=O)CCNC(=O)[C@H](O)C(C)(C)COP(=O)(O)OP(=O)(O)OC[C@H]1O[C@@H](n2cnc3c(N)ncnc32)[C@H](O)[C@@H]1OP(=O)(O)O; pH 7.4, 37 °C): 2280 µM
STH1425 (Symbiobacterium thermophilum, UniProt Q67PI3) — Km (O=C(O)C(=O)Cc1ccccc1; pH 9, 30 °C, reductive amination, added: NH4Cl 200 mM, NADPH 0.5 mM): 15200 µM
MCM2-7 (Drosophila melanogaster) — Km (Nc1ncnc2c1ncn2[C@@H]1O[C@H](COP(=O)(O)OP(=O)(O)OP(=O)(O)O)[C@@H](O)[C@H]1O; pH 7.6, 30 °C, no DNA, added: ATP 0.03 µM-3 mM, magnesium acetate 10 mM): 131 µM
B7 (AKR1C1) — Km (C=C1C[C@@H]2[C@H](CC[C@]3(C)C(=O)CC[C@@H]23)[C@@]2(C)C=CC(=O)C=C12; 37 °C): 35.3 µM
B8 (FabZ) — Km (C/C=C/C(=O)SCCNC(=O)CCNC(=O)[C@H](O)C(C)(C)COP(=O)(O)OP(=O)(O)OC[C@H]1O[C@@H](n2cnc3c(N)ncnc32)[C@H](O)[C@@H]1OP(=O)(O)O; pH 7.5, room temperature, NaCl 500 mM, reverse hydration reaction): 69.7 µM

A few entries again:
B8 (FabZ) — Km (C/C=C/C(=O)SCCNC(=O)CCNC(=O)[C@H](O)C(C)(C)COP(=O)(O)OP(=O)(O)OC[C@H]1O[C@@H](n2cnc3c(N)ncnc32)[C@H](O)[C@@H]1OP(=O)(O)O; pH 7.5, room temperature, NaCl 500 mM, reverse hydration reaction): 69.7 µM
